# Measured values from different studies.
# Each numbered part is a random draw from the data of one study; scales do not carry over between parts. Changes are numbered by the printed parent chain.

# Sample 1
# Target: Ras GTPase-activating protein-binding protein 1, full length (G3BP1, Homo sapiens, UniProt Q13283)
# Sequence of UniProt Q13283 (whole entry, looked up): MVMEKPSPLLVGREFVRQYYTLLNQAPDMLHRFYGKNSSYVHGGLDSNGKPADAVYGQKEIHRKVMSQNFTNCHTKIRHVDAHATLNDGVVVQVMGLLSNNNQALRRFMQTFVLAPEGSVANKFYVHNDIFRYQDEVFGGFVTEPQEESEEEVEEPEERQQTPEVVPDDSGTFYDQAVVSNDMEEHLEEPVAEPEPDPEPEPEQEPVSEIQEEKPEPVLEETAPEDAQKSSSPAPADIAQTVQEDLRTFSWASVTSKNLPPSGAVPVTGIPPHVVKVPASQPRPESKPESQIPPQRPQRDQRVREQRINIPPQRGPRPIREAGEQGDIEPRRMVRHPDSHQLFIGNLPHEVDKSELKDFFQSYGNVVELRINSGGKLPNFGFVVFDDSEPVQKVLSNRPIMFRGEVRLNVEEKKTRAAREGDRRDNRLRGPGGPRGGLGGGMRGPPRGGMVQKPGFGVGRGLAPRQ
# Technique: RNA Bind-n-Seq
# Form: RNA
# Matrix: in vitro
# Concentration: 200 nM
# Setting: whole 134-nt RNA, ends assumed
# With: 150 mM KCl
# Baseline: input library
# Reading: higher = stronger binding
# Constant ends, left off below: GGGAGUUCUACAGUCCGACGAUC … UGGAAUUCUCGGGUGUCAAGG
Oligonucleotide,log2 enrichment
GCAGGAAGUAAAAACAACUGGAAAUGCUUCGGAUAGUGGCAGGGGUGGGGGUUGCUAAGGAAAGGGUGGGAUGGGAGUGGGUAAAGAGUU,1.07
UCAAGUCCUGUGCUACACAUCGUAUGUACCGAAUCGUGUGUGUGUGUGUGUGUGAAAGUAUUAUGUUACGCCGUUCGGAUCUGCACUUCC,0.194
GGACAAGAAUCCUUCAAGAAACAGGAAAAAACUCCUAAAACACCAAAAGGACCUAGUUCUGUAGAAGACAUUAAAGCAAAAAUGCAAGCA,0.306
UGUGCUACACAUCGUAUGUACCGAAUCGGGGUUUUUUUGGGGUUUUUUUGGUUUUUUUGGGGAAAGUAUUAUGUUACGCCGUUCGGAUCU,-0.669
CCUGUGCUACACAUCGUAUGUACCGAAUCAAACCCCCCCAAACCCCCAAACCCCCCCAAAAAAGUAUUAUGUUACGCCGUUCGGAUCUGC,1.37
UGGGAGGUGCAUUUUGUUUAUUUUUUUAGCUCAUUUCCAGGGGUGGGAAUUUUUUUUUAAUAUGUGUCAUGAAUAAAGUUGUUUUUGAAA,0.091
CUCAAGUCCUGUGCUACACAUCGUAUGUACCGAAUCGGUGGUUUUUUUGGAGGAAAGUAUUAUGUUACGCCGUUCGGAUCUGCACUUCCA,-0.254
CCUUUUUGAGAAGGCCGGACCCAUUUGGGAUCUACGUCUUAUGAUGGAUCCACUGUCCGGUCAGAAUAGAGGGUAUGCAUUUAUCACCUU,-1.28
ACCAUGCAGGUGGGCAUCUUUGGGAAGAAAGGCAAGGGGGGGAUAGGGAGGGGGGUAACACUUUGGGAACAGGUGGUCCCAGGUCGUUUC,1.62
GCAGGAAGUAAAAUCAAAUGGAAAUGCUUCGGAUAGUGGCAGGGGUGGGGGUUGCUAAGGAAAGGGUGGGAUGGGAGUGGGUAAAGAGUU,1.11
CCUGUGCUACACAUCGUAUGUACCGAAUCGGGGCCCCCCGGGCCCCCCGGGCCCCCCGGGGAAAGUAUUAUGUUACGCCGUUCGGAUCUG,-0.684
UCAAGUCCUGUGCUACACAUCGUAUGUACCGAAUCGGGUUUGGUUUGGUUUGGGGAAAGUAUUAUGUUACGCCGUUCGGAUCUGCACUUC,-0.792
GUCCUGUGCUACACAUCGUAUGUACCGAAUCGGGUUUUUUGGUUUUUUGGUUUUUUGGAAAGUAUUAUGUUACGCCGUUCGGAUCUGCAC,-1.29
UGGCCCUAGUGGCAUGCGGGGAGGAAGAGGUGGCCUCAUGGAUCGUGGUGGUCCCGGUGGAAUGUUCAGAGGUGGCCGUGGUGGAGACAG,0.218

# Sample 2
# Target: Interferon regulatory factor 3, full length, phosphomimetic (IRF3, Homo sapiens, UniProt Q14653, residues 1-427, S386D/S396D/S398D/S402D/T404D/S405D)
# Technique: protein-binding microarray
# Form: double-stranded DNA, one strand shown
# Matrix: in vitro
# Concentration: 2540 nM top
# Setting: 60-bp whole probe
# With: salmon DNA 0.4 mg/ml
# Baseline: random background probes
# Reading: higher = stronger binding
# Constant ends, left off below: GCCTAGCAC … GTCTTGATTCGCTTGACGCTGCTG
# Target sequence (chain): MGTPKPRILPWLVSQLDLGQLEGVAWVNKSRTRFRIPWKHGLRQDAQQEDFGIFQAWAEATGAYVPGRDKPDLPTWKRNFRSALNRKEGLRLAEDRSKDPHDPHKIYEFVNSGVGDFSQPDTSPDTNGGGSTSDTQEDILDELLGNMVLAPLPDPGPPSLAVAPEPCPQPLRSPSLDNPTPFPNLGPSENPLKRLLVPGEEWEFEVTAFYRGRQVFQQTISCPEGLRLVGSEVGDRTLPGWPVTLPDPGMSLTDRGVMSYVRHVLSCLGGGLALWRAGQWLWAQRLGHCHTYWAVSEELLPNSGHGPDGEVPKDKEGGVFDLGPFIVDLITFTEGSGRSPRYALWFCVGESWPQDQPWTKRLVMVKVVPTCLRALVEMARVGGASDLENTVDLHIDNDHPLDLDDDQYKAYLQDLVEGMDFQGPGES
Oligonucleotide,fitted relative affinity [z-score]
AATGATTGGTTGAACATGAAGTGCTAG,-0.187
CTATAAAGCATCAGGAAAGCGTGCTAG,-0.186
TTAGGTCTCGGTAGCGGTTAGTGCTAG,-0.358
TTAGGCATCCTACTGCTTTAGTGCTAG,-0.31
TCAGGTCTCTTGTTCTCACTGTGCTAG,0.222
GAGGGACTGGACTTTCGGGACGTGCTA,-0.359
TCATCTTATCCTATCAGACTGTGCTAG,1.95
GACGGACTGCTACTGCAGACGTGCTAG,-0.677
GACGTTATCGGGTATCGAGACGTGCTA,0.368
TTACGTATCCTTTTCCTTTAGTGCTAG,8.06
TCAATATTATATCTGTGACTGTGCTAG,0.305

# Sample 3
# Molecule: PhoQ, residues 284 288 289 292 302 303 AGHLVA
# Technique: Sort-seq
# Refers to: YFP reporter
# Matrix: E. coli
# Setting: PhoQ-PhoP variant library
# With: 10 µM Mg2+
# Baseline: high Mg2+ state
# Reading: higher = stronger signaling
target,fold induction
"PhoP, residues 12 14 15 18 19 QQAYL (Escherichia coli, UniProt P23836)",19
"PhoP, residues 12 14 15 18 19 LFHKL (Escherichia coli, UniProt P23836)",4.46
"PhoP, residues 12 14 15 18 19 GMGLL (Escherichia coli, UniProt P23836)",0.685

# Sample 4
# Target: CCNE1, cyclin fold, Cln2 fusion (human)
# Technique: yeast growth competition, sequencing
# Matrix: yeast
# Setting: weak parent motif
# Baseline: not given
# Reading: higher = stronger binding
# Starting sequence: MICAL3 docking peptide (human); LQLRRQLSFSEDS
Substitution,normalised enrichment score
LQLRRQLSFSYDS [E11Y],0.714
LQLRRQLSFSEIS [D12I],1.61
LQLRRQQSFSEDS [L7Q],-0.00137
LHLRRQLSFSEDS [Q2H],1.16
LQLRRQLSFSIDS [E11I],0.325
LQLRRQLSFSESS [D12S],0.804
LQLRRCLSFSEDS [Q6C],1.04
LQLMRQLSFSEDS [R4M],0.0347
LQLRRQMSFSEDS [L7M],0.26
LALRRQLSFSEDS [Q2A],0.915
LQLRRQLSFSSDS [E11S],1.17
LQLRRQLSFFEDS [S10F],0.365
LQLRRQLSESEDS [F9E],-0.0889
LQLRRQGSFSEDS [L7G],0.103
LQLRRQLSFVEDS [S10V],0.575
LQLRRQLSFMEDS [S10M],0.373
